Measured values of several laboratories.
Each line is one published result; not all experiments were run side by side.
Target: Histone deacetylase 1 (HDAC1, Homo sapiens, UniProt Q13547)
Sequence of UniProt Q13547 (whole entry, looked up): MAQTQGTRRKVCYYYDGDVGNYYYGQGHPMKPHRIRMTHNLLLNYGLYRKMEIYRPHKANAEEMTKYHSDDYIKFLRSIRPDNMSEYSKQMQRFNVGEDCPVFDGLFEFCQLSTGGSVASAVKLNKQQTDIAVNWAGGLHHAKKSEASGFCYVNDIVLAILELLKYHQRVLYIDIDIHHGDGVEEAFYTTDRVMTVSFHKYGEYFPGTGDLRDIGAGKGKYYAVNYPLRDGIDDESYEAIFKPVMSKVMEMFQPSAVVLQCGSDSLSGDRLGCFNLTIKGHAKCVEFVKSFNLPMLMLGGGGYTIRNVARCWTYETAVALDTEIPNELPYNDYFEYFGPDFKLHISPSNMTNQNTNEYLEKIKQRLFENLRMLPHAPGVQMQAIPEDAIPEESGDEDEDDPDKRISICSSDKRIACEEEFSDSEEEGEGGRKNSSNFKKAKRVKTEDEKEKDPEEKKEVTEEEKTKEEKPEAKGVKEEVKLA

Compound = C=CC[C@@H]1NC(=O)CCSCc2ccc(cc2)CSCCCNC(=O)[C@H](CCCCCC(=O)N(O)CCCCCC)NC1=O; test = enzyme activity, inhibitor, fluorogenic; setting = 30 µM; measurement = inhibition; result = 60%
Compound = O=C(NO)c1cc(F)cc(OS(=O)(=O)Oc2ccccc2-c2ccccc2)c1; test = enzyme activity, inhibitor, fluorescence; setting = 10 µM; measurement = inhibition; result = 11%
Compound = Cc1c(COc2cc(OCc3cccc(C#N)c3)c(CNCCO)cc2Cl)cccc1-c1cccc(OCCCCCCC(=O)NO)c1; test = enzyme activity, inhibitor; setting = 1 µM; measurement = inhibition; result = 83.9%
Compound = CC(C)c1ccccc1OS(=O)(=O)Oc1cccc(C(=O)NO)c1; test = enzyme activity, inhibitor, fluorescence; setting = 10 µM; measurement = inhibition; result = 22%
Compound = Cc1c(COc2cc(OCc3cccc(C#N)c3)c(CN3CCCC[C@H]3C(=O)O)cc2Cl)cccc1-c1cccc(OCc2ccc(C(=O)NO)cc2)c1; test = enzyme activity, inhibitor; setting = 1 µM; measurement = inhibition; result = 40.3%
Compound = COC(=O)c1ccc2c(c1)nc(NC(=O)c1ccccc1)n2CCCc1ccccc1; test = enzyme activity, inhibitor; setting = 10 µM; measurement = remaining activity; result = 86%
Compound = Cc1c(COc2cc(OCc3cccc(C#N)c3)c(CNC(C)(CO)CO)cc2Cl)cccc1-c1cccc(OCCCCCCC(=O)NO)c1; test = enzyme activity, inhibitor; setting = 1 µM; measurement = inhibition; result = 78.6%
Compound = C=CC[C@@H]1NC(=O)CCSCc2ccc(cc2)CSC/C=C/CNC(=O)[C@H](CCCCCC(=O)N(O)CCCCCC)NC1=O; test = enzyme activity, inhibitor, fluorogenic; setting = 30 µM; measurement = inhibition; result = 30%
Compound = CC(=O)NCCNCc1cc(Cl)c(OCc2cccc(-c3cccc(OCCCCCCC(=O)NO)c3)c2C)cc1OCc1cccc(C#N)c1; test = enzyme activity, inhibitor; setting = 1 µM; measurement = inhibition; result = 69.4%
Compound = CC(C)(C)c1ccccc1OS(=O)(=O)Oc1cccc(C(=O)NO)c1; test = enzyme activity, inhibitor, fluorescence; setting = 10 µM; measurement = inhibition; result = 18%
Compound = C[S@@](=N)(=O)c1ccc(C(=O)Nc2cc(-c3ccc(F)cc3)ccc2N)cc1; test = NanoBRET target engagement; scale = reference: HDAC3 over HDAC1; measurement = selectivity ratio; result = 10 fold
Compound = O=C(NO)c1cccc(OS(=O)(=O)Oc2ccccc2)c1; test = enzyme activity, inhibitor, fluorescence; setting = 10 µM; measurement = inhibition; result = 52%
Compound = CCCCCCN(O)C(=O)CCCCC[C@@H]1NC(=O)[C@H]([C@@H](C)CC)NC(=O)[C@H](Cc2ccccc2C(F)(F)F)NC(=O)CCSCc2cccc(n2)CSCCCNC1=O; test = enzyme activity, inhibitor, fluorogenic; setting = 30 µM; measurement = inhibition; result = 55%
